Measured values of several laboratories.
Protocols differ between the studies behind these lines. Values joined by “and” are separate records of one study, mostly repeats; a detail may differ. ± gives the spread as reported.
Chain of UniProt Q9ULK4 (whole entry, looked up): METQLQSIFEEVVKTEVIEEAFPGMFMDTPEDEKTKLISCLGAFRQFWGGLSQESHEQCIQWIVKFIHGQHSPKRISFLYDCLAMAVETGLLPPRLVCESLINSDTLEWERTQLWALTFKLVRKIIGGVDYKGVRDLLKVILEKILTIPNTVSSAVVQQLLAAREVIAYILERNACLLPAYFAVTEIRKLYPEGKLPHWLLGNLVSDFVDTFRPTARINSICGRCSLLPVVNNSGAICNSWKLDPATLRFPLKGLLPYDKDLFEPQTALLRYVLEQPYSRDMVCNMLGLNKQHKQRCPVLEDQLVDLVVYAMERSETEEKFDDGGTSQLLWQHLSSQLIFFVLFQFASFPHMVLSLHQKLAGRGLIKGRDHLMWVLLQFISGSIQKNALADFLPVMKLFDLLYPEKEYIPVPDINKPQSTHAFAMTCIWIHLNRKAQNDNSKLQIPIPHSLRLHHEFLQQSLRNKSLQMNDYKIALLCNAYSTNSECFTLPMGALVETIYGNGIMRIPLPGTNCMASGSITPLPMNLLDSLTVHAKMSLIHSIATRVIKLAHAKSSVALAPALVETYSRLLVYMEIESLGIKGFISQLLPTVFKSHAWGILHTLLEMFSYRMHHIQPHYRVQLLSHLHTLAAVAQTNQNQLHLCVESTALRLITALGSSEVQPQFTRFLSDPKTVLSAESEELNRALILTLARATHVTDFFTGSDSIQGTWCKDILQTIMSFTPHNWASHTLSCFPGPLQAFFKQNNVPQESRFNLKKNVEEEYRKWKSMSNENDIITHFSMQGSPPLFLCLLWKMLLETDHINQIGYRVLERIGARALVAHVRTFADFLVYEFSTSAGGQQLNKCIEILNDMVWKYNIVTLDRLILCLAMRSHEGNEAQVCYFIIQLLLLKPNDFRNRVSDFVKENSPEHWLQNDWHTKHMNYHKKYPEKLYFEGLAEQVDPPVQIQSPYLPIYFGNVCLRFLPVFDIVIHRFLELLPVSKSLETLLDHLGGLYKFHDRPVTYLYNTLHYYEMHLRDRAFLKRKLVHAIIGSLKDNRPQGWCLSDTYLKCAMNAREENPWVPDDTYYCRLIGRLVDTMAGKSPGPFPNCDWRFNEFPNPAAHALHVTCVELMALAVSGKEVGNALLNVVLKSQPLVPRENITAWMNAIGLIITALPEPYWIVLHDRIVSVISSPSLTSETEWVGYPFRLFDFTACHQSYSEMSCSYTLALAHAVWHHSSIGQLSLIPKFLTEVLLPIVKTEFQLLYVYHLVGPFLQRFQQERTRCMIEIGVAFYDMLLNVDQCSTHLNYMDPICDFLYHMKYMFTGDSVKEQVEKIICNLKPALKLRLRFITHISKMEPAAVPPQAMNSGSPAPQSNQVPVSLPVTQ

C=C(CN(C(=O)c1c(C(F)F)nn(C)c1F)C1CC1)c1ccc(Cl)cc1Cl  mortality (static acute toxicity test; zebrafish (Brachydanio rerio); 0.833 mg a.i./L, 72 h): 20%
O=C(c1ccc(F)c(F)c1Nc1ccc(I)cc1F)N1CC(O)([C@@H]2CCCCN2)C1  SAE leading treatment withdrawal (patients aged 2 to 6 years; oral, dose not given): 0%
COc1cc2c(Oc3ccc4[nH]c(C)cc4c3F)ccnc2cc1OCC1(N)CC1  grade 1 or 2 mouth ulcer (paediatric recurrent refractory sarcoma; 10 mg): 0%
CC[C@H](C)[C@H](NC(=O)[C@H](C)NC(=O)[C@H](CCCCN)NC(=O)[C@H](CC(C)C)NC(=O)[C@H](C)NC(=O)[C@@H](NC(=O)[C@H](Cc1c[nH]cn1)NC(=O)[C@H](CC(C)C)NC(=O)[C@@H](NC(=O)[C@@H](NC(=O)[C@H](CCCCN)NC(=O)[C@H](C)NC(=O)[C@H](C)NC(=O)[C@H](CO)NC(=O)[C@H](CCCCN)NC(=O)[C@H](Cc1ccccc1)NC(=O)[C@@H](NC(=O)[C@H](CCCCN)NC(=O)[C@H](CC(C)C)NC(=O)[C@H](Cc1ccccc1)NC(=O)[C@H](CO)NC(=O)[C@H](CCCCN)NC(=O)[C@H](Cc1c[nH]c2ccccc12)NC(=O)[C@H](CCCCN)NC(C)=O)[C@@H](C)O)[C@@H](C)O)C(C)C)[C@@H](C)O)C(=O)N[C@@H](CO)C(=O)N[C@@H](CO)C(N)=O  MTD (minipig; topical on skin, 30 days): > 200 mg/pig
O=S(=O)(Nc1ccccc1)c1ccc(NC(=S)Nc2ccccc2)cc1  relative organ weight (mouse, male, large intestine; oral, 20 mg/kg daily, 14 days; relative to: body weight): 0.95%
C[C@]12CC[C@@H]3c4ccc(O)cc4CC[C@H]3[C@@H]1CCC2=O  dose fraction in permeate (ultrafiltration; cow milk whey; 20 nM nominal in whole milk): 14.2%
Cc1ccc(F)c2cc(C(=O)N[C@@H]3CCC[C@H](N4CC[C@H](N(C)S(C)(=O)=O)C4)C3)[nH]c12  terminal half-life (CD1 mouse; intravenous, 1 mg/kg): 3.1 h
CC(C)(C)c1cc(-n2nc3ccc(Cl)cc3n2)c(O)c(C(C)(C)C)c1  cumulative dermal absorption (reconstructed human epidermis EpiSkin; 36 h): 63.8 ± 2.79%
C[C@H]1CN(c2n[nH]c3nc(N[C@H]4CC[C@H](NS(=O)(=O)CCC(F)(F)F)CC4)ncc23)CCO1  relative abundance (MED23 (Homo sapiens, UniProt Q9ULK4); inhibitor, Kinobeads competition profiling; 20 µM; relative to: vehicle): 1.1
C[C@]1(CO)Cc2ncn(-c3ccc(C#N)c(Cl)c3)c2C(=O)O1  subjects with drug-related TEAE (item: involuntary muscle contractions; human; 40 mg single dose): 0%
CC(C)[C@@H]1NC(=O)CNC(=O)[C@H](CC(N)=O)NC(=O)[C@H](CCCNC(=N)N)NC(=O)[C@H](Cc2ccc(O)cc2)NC(=O)[C@H](C(C)C)NC(=O)[C@@H](NC(=O)[C@@H](NC(=O)[C@H](CC(N)=O)NC(=O)[C@H](Cc2c[nH]c3ccccc23)NC(=O)[C@H](C)NC(=O)[C@H](Cc2ccccc2)NC(=O)CN)C(C)C)CSSC[C@@H](C(=O)N[C@@H](Cc2cnc[nH]2)C(=O)N[C@@H](CCCNC(=N)N)C(=O)N[C@@H](CCCNC(=N)N)C(=O)N[C@@H](C)C(=O)N[C@@H](CC(N)=O)C(N)=O)NC(=O)[C@H](C(C)C)NC(=O)[C@H](CCCNC(=N)N)NC1=O  monocytes (ICR mice, blood; intraperitoneal, 10 mg/kg, day 5): 3.09 ± 0.35%
Cc1ncnc2c1ccn2[C@@H]1C[C@H](Oc2cc(C(F)F)c(F)c3c2CNCC3)[C@@H](O)[C@H]1O  Dysgeusia incidence (patients; dose not given, grade ≥3; relative to: patients): 0%
CC[C@H](C)[C@@H]1NC(=O)[C@@H]2CCCN2C(=O)[C@H](CC(C)C)NC(=O)[C@H](CC(C)C)NC(=O)CNC(=O)[C@@H](NC(=O)[C@@H](NC(=O)[C@H](CC(=O)O)NC(=O)CNC(=O)[C@@H](NC(=O)[C@H](C)NC(=O)CNC(=O)[C@H](CCCCN)NC(=O)[C@H](CC(C)C)NC(=O)[C@H](CC(C)C)NC(=O)[C@H](CCCCN)NC(=O)CNC(=O)[C@@H](NC(=O)[C@@H](N)CC(C)C)C(C)C)C(C)C)C(C)C)CSSC[C@@H](C(=O)O)NC1=O  log2 fold change (RNA-seq, item: Tssk6; mouse, traumatic brain injury model, frontal cortex and hippocampus; dose not given; relative to: TBI alone): -2.06
COc1cccc(Oc2ccccc2NC(=O)CNC(=O)c2cccc3ccccc23)c1  total protein (esterase-deficient SCID mice, male; oral, 100 mg/kg/day, 14 days, toxicity study): 5.2 g/dL and 5.5 g/dL and 5.4 g/dL
CN1CCN(S(=O)(=O)c2cc([N+](=O)[O-])ccc2N(CCOS(C)(=O)=O)CCOS(C)(=O)=O)CC1  amylase (naive NOD/SCID mice, pooled blood; intraperitoneal, 18.8 mg/kg, week 4): 676 U/L
NCCCC[C@@H]1NC(=O)[C@@H](Cc2c[nH]c3ccccc23)NC(=O)[C@H](c2ccccc2)NC(=O)[C@@H]2C[C@@H](OC(=O)NCCN)CN2C(=O)[C@H](Cc2ccccc2)NC(=O)[C@H](Cc2ccc(OCc3ccccc3)cc2)NC1=O  placebo-corrected QTcF change (healthy volunteers, male; 1950 µg twice daily, 1.5 h, post hoc): 12.8 ms
CC(=O)NCC(=O)NCC(=O)N[C@H](C(=O)N[C@@H](Cc1ccc(O)cc1)C(=O)N[C@@H](CO)C(=O)N[C@H]1CSSC[C@@H](C(=O)N[C@@H](CCCNC(=N)N)C(=O)N2CCC[C@H]2C(=O)N[C@@H](CCC(N)=O)C(=O)N[C@@H](CCCNC(=N)N)C(=O)NCC(=O)NCCC(=O)N[C@@H](CCCCNC(=O)CN(CC(=O)NCCCC[C@H](NC(=O)CCNC(=O)CNC(=O)[C@H](CCCNC(=N)N)NC(=O)[C@H](CCC(N)=O)NC(=O)[C@@H]2CCCN2C(=O)[C@H](CCCNC(=N)N)NC(=O)[C@@H]2CSSC[C@H](NC(=O)[C@H](CO)NC(=O)[C@H](Cc3ccc(O)cc3)NC(=O)[C@@H](NC(=O)CNC(=O)CNC(C)=O)[C@@H](C)O)C(=O)N[C@@H](Cc3c[nH]cn3)C(=O)N[C@@H](Cc3ccccc3)C(=O)NCC(=O)N[C@@H](C)C(=O)N[C@@H](CC(C)C)C(=O)N[C@@H]([C@@H](C)O)C(=O)N[C@@H](Cc3c[nH]c4ccccc34)C(=O)N[C@@H](C(C)C)C(=O)N2)C(N)=O)C(=O)CCN)C(N)=O)NC(=O)[C@H](C(C)C)NC(=O)[C@H](Cc2c[nH]c3ccccc23)NC(=O)[C@H]([C@@H](C)O)NC(=O)[C@H](CC(C)C)NC(=O)[C@H](C)NC(=O)CNC(=O)[C@H](Cc2ccccc2)NC(=O)[C@H](Cc2c[nH]cn2)NC1=O)[C@@H](C)O  serum concentration (MSD immunoassay; BALB/c mice, healthy female, serum; subcutaneous, 0.08 mg/kg, 336 h, LLOQ 2.0 ng/mL): not detected
O=[N+]([O-])NC1=NCCN1Cc1ccc(Cl)nc1  dose fraction in permeate (ultrafiltration; cow milk whey; 2000 nM nominal in whole milk): 58.5%
CCCCCCCCCCC[C@H](OC1OC[C@H](O)[C@@H](O)[C@@H]1O)[C@H](O)[C@H](O)C[C@@H]1CC(=O)N[C@H](CO)C(=O)N[C@H]([C@H](O)c2ccc(O)cc2)C(=O)N[C@H](CCN)C(=O)NCC(=O)N[C@@H](CC(N)=O)C(=O)N[C@@H](CO)C(=O)N[C@@H]([C@H](O)C(N)=O)C(=O)N1 (some centres unmarked)  measured concentration (LC-MS/MS; rabbit plasma, sodium citrate; 200 ng/mL, 3 freeze-thaw cycles, stored at -80°C): 169 ng/mL
O[C@H]1CCCN[C@@H]1CCCn1cnc2c(Cl)c(Cl)ccc21  median Tmax (healthy humans, plasma; oral, 150 mg single dose): 4 h
O=C(Nc1ccc2c(c1)B(O)OC2)c1cccc(OCc2c(Cl)cccc2Cl)c1  membrane retention (PAMPA; 200 µM, 5 h, pH 7.4): 10.3%
COc1ccnc(C(=O)N[C@H]2COC(=O)[C@H](Cc3ccccc3)[C@@H](OC(=O)C(C)C)[C@H](C)OC2=O)c1OCOC(=O)C(C)C  Freundlich coefficient KF (soil adsorption; soil; pH 5.9, organic carbon 0.9 %): 20.3 mL/g
CNC(=O)c1c(N(C)N=O)ncn1C  revertant colonies per plate (Salmonella typhimurium; mutagenicity, Ames plate incorporation; TA98; 2500 µg/plate, without S9, methanol): 17.3 ± 3
COc1cc(C(=O)NC2CCN(C)CC2)c(F)cc1Nc1ncc(C(F)(F)F)c(Oc2cccc3c2C(=O)N(C)C3)n1  mean residence time (human patients, plasma; oral, 25 mg single dose, geometric mean): 30.1 h
C[C@@H](NC(=O)N1C(=O)[C@H](Cc2ccnc(N)c2)[C@H]1C(=O)O)C1CCCCC1  incidence of drug-related AEs (healthy adult Chinese volunteers; continuous intravenous infusion, 1.0 mg/kg/h, 5-day infusion, CTCAE 5.0 grading): 0%
CC(C)(O)c1cc(Nc2cc(Oc3cn(C4CC4)nc3C3CCOCC3)ccn2)ccn1  treatment-related adverse events (Constipation; patients with advanced cancer, Japanese cohort; oral, dose not given, grade ≥3): 0%
Clc1ccc(-c2ccccc2)cc1  serum Creatinine (rat Sprague-Dawley female, serum; inhalation, 35 µg/rat, 24 h): 0.3 ± 0.1 mg/dL
CC(C)(C(=O)NC1C2CC3CC1CC(C(N)=O)(C3)C2)N1CCN(c2ccc(C(F)(F)F)cn2)CC1 (centres unmarked)  dose-normalised free AUC(0-24) (human, plasma; 50 mg once daily, 5 days, median): 1.19 (ng·h/mL)/mg
COc1ncccc1-c1cnn2ccc(N3CCN(C(=O)OC(C)C)CC3)nc12  drug concentration (mouse nerve ligation model, brain; oral, 10 mg/kg, 120 min after last dose, repeat dosing day 3): 4.8 µM
CNC(=O)c1cc(Oc2ccc(NC(=O)Nc3cc(C(C)(C)C)nn3-c3ccc4ncccc4c3)c(F)c2)ccn1  related SAE (optic nerve disorder, NCI CTC v3.0; human patients; oral, 150 mg twice daily, tablet, dose at onset): 3%
CN1CC[C@@H](c2c(O)cc(O)c3c(=O)cc(-c4ccc(C(F)(F)F)cc4Cl)oc23)[C@@H]1CO  patients with adverse event (item: Hypotension; relapsed B-cell malignancies; oral, 200 mg, grade 3-4, intermittent dosing): 0%
Cn1cncc1-c1c(F)cncc1NC(=O)c1c(N)nn2cc(F)cnc12  grade ≥3 platelet decrease incidence (human patients; oral, 270 mg once daily): 25%
COc1ccc(-c2c(-c3ccc(C#N)c(F)c3)nc(N3CCC(N)CC3)n(C)c2=O)cc1F  treatment-related adverse event incidence (item: Vomiting; relapsed/refractory marginal zone lymphoma patients; oral, 60 mg, grade 3 to 4, dose expansion): 0%
O=C(Nc1ccccc1)C1CCN(C(=O)Oc2cccnc2)CC1  change in Happy-Sad score (Bond-Lader VAS; healthy women; oral, 20 mg; relative to: pre-dose baseline, direction not given): -16
CC(=O)c1c(C)c2cnc(Nc3ccc(C4CCN(CCS(C)(=O)=O)CC4)cn3)nc2n(C2CCCC2)c1=O  AUC(0-t) (human, dose-escalation trial, plasma; oral, 25 mg twice daily, day 1, single dose): 449 ng·h/mL
CO[C@H]1C[C@@H]2CC[C@@H](C)[C@@](O)(O2)C(=O)C(=O)N2CCCC[C@H]2C(=O)O[C@H]([C@H](C)C[C@@H]2CC[C@@H](OC(=O)NCCOCCOCCOCCOCCOCCOCCOCCOCCC(=O)N3CCc4cc(Cn5nc(-c6ccc7oc(N)nc7c6)c6c(N)ncnc65)ccc4C3)[C@H](OC)C2)C[C@@H](O)[C@H](C)/C=C(\C)[C@@H](O)[C@@H](OC)C(=O)[C@H](C)C[C@H](C)/C=C/C=C/C=C/1C  incidence of Nausea TEAE (patients with advanced solid tumours; intravenous, dose not given, grade ≥3): 3.5%
CCN1[C@@H](C(=O)NC23CCC(C(=O)O)(CC2)CC3)[C@H](c2cccc(Cl)c2F)[C@]2(C(=O)Nc3cc(Cl)ccc32)C12CCCCC2  Leukopenia incidence (patients with advanced solid tumours; oral, 200 mg): 50%
CCc1ccc(CC/C=C/c2ccc3c(c2)C(=O)CC3)cc1  MCHC (Sprague-Dawley rat, male; oral, 120 mg/kg/day, 14 days): 310 g/L

Repeated from above:
CN1CCN(S(=O)(=O)c2cc([N+](=O)[O-])ccc2N(CCOS(C)(=O)=O)CCOS(C)(=O)=O)CC1  amylase (naive NOD/SCID mice, pooled blood; intraperitoneal, 18.8 mg/kg, week 4): 676 U/L
COc1cccc(Oc2ccccc2NC(=O)CNC(=O)c2cccc3ccccc23)c1  total protein (esterase-deficient SCID mice, male; oral, 100 mg/kg/day, 14 days, toxicity study): 5.2 g/dL and 5.5 g/dL and 5.4 g/dL
Cc1ncnc2c1ccn2[C@@H]1C[C@H](Oc2cc(C(F)F)c(F)c3c2CNCC3)[C@@H](O)[C@H]1O  Dysgeusia incidence (patients; dose not given, grade ≥3; relative to: patients): 0%
CC(C)(C(=O)NC1C2CC3CC1CC(C(N)=O)(C3)C2)N1CCN(c2ccc(C(F)(F)F)cn2)CC1 (centres unmarked)  dose-normalised free AUC(0-24) (human, plasma; 50 mg once daily, 5 days, median): 1.19 (ng·h/mL)/mg
CCCCCCCCCCC[C@H](OC1OC[C@H](O)[C@@H](O)[C@@H]1O)[C@H](O)[C@H](O)C[C@@H]1CC(=O)N[C@H](CO)C(=O)N[C@H]([C@H](O)c2ccc(O)cc2)C(=O)N[C@H](CCN)C(=O)NCC(=O)N[C@@H](CC(N)=O)C(=O)N[C@@H](CO)C(=O)N[C@@H]([C@H](O)C(N)=O)C(=O)N1 (some centres unmarked)  measured concentration (LC-MS/MS; rabbit plasma, sodium citrate; 200 ng/mL, 3 freeze-thaw cycles, stored at -80°C): 169 ng/mL
